Results gathered from unrelated publications.
Lines come from different studies, so protocols differ. ± marks the error that the study gave.
PIM1: Serine/threonine-protein kinase pim-1 (PIM1, Homo sapiens, UniProt P11309)
Sequence of UniProt P11309 (whole entry, looked up): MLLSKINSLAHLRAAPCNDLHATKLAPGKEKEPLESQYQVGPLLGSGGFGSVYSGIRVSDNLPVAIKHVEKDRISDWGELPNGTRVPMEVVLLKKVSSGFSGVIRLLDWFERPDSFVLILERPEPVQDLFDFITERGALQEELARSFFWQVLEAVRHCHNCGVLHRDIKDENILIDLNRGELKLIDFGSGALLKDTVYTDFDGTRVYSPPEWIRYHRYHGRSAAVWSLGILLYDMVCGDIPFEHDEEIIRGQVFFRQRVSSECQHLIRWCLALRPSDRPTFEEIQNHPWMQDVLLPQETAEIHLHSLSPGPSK
HIPK1: Homeodomain-interacting protein kinase 1 (HIPK1, Homo sapiens, UniProt Q86Z02)
Sequence of UniProt Q86Z02 (whole entry, looked up): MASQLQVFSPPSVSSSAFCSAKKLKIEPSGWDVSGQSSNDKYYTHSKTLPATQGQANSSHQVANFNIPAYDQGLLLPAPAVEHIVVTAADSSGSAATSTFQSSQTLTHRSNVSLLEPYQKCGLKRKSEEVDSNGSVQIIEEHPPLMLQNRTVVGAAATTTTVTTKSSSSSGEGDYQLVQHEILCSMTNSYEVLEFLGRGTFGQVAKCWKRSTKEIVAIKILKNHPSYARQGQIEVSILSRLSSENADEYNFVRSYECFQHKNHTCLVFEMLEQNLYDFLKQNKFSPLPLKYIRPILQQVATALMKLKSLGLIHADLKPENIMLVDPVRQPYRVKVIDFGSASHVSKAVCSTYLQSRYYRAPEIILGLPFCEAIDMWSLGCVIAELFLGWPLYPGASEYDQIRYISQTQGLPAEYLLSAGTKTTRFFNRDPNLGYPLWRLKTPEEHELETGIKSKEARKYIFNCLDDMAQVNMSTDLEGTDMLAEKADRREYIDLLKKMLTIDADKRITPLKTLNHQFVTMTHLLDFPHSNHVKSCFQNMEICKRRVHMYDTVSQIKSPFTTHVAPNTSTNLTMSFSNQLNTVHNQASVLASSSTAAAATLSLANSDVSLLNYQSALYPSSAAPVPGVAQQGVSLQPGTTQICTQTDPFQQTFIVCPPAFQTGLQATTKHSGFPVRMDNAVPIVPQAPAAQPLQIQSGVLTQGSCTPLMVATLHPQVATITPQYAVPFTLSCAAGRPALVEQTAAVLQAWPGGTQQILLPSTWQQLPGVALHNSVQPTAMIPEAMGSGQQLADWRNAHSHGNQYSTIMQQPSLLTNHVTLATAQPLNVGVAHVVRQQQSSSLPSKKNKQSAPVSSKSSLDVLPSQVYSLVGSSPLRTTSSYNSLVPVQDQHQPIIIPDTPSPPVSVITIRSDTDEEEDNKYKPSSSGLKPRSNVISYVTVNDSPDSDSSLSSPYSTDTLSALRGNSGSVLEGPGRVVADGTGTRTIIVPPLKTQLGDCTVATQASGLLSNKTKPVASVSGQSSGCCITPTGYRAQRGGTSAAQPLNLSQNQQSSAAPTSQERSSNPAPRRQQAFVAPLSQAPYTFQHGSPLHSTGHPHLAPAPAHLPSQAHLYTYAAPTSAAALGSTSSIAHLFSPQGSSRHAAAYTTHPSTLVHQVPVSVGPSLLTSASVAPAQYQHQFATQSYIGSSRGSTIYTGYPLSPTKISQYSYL
PTK6: Protein-tyrosine kinase 6 (PTK6, Homo sapiens, UniProt Q13882)
Sequence of UniProt P28074 (whole entry, looked up): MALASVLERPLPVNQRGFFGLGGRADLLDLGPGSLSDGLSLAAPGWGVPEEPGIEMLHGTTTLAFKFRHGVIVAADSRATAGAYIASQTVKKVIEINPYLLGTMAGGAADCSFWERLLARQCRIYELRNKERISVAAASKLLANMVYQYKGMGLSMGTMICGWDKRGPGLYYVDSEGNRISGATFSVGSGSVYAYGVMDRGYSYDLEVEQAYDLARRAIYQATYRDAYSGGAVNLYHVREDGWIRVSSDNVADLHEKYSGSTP
Sequence of UniProt Q13882 (whole entry, looked up): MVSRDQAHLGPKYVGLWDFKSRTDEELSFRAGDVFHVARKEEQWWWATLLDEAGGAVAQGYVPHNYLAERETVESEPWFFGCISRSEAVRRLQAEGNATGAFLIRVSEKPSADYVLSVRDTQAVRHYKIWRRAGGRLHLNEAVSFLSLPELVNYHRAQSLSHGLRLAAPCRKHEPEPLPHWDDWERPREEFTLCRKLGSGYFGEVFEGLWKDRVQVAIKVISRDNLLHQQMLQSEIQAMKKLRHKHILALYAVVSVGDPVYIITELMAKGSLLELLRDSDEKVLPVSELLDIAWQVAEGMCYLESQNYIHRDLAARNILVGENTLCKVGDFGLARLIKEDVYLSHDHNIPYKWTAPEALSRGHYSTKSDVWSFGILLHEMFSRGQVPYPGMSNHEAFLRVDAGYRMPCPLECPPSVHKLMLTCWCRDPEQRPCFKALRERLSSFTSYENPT
Sequence of UniProt Q96RG2 (whole entry, looked up): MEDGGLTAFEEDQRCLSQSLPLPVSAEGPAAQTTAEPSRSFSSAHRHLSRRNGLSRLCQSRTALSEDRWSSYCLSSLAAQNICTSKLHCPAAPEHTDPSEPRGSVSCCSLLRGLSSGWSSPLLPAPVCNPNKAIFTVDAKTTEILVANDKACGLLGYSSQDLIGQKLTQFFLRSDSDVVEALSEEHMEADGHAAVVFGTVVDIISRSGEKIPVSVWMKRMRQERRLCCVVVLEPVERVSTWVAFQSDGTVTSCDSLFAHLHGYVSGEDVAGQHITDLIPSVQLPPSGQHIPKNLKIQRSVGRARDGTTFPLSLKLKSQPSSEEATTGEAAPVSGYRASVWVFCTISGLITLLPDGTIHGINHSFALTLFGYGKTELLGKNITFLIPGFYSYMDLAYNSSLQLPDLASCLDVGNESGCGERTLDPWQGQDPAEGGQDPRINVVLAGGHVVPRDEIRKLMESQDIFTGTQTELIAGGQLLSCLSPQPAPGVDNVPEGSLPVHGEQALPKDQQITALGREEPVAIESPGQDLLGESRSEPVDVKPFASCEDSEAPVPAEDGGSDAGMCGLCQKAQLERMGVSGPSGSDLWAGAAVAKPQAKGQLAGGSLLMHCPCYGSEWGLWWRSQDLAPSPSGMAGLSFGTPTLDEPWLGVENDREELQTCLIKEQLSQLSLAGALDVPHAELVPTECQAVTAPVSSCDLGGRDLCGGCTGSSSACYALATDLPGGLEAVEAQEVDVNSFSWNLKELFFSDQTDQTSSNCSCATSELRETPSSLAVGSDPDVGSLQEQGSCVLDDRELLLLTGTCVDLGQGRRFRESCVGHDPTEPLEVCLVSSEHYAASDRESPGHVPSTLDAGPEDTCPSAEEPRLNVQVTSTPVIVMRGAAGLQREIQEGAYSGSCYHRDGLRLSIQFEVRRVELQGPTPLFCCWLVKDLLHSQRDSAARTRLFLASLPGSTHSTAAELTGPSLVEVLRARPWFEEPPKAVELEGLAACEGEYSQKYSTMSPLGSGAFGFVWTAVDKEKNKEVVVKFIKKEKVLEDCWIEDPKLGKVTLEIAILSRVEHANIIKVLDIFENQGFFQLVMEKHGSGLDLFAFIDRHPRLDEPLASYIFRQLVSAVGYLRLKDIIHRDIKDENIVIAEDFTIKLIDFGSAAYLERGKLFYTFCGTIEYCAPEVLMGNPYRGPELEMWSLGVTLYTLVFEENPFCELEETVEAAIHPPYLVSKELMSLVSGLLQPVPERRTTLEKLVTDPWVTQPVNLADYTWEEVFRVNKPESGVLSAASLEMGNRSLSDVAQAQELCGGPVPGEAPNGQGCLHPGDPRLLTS
Sequence of UniProt P20618 (whole entry, looked up): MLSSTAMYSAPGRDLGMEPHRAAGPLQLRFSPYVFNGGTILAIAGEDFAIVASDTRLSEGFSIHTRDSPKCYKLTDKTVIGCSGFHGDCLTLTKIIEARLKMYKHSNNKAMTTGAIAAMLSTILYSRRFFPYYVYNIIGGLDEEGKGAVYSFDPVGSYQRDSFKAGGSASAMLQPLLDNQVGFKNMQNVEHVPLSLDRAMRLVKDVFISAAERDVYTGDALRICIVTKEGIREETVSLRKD
Sequence of UniProt P07949 (whole entry, looked up): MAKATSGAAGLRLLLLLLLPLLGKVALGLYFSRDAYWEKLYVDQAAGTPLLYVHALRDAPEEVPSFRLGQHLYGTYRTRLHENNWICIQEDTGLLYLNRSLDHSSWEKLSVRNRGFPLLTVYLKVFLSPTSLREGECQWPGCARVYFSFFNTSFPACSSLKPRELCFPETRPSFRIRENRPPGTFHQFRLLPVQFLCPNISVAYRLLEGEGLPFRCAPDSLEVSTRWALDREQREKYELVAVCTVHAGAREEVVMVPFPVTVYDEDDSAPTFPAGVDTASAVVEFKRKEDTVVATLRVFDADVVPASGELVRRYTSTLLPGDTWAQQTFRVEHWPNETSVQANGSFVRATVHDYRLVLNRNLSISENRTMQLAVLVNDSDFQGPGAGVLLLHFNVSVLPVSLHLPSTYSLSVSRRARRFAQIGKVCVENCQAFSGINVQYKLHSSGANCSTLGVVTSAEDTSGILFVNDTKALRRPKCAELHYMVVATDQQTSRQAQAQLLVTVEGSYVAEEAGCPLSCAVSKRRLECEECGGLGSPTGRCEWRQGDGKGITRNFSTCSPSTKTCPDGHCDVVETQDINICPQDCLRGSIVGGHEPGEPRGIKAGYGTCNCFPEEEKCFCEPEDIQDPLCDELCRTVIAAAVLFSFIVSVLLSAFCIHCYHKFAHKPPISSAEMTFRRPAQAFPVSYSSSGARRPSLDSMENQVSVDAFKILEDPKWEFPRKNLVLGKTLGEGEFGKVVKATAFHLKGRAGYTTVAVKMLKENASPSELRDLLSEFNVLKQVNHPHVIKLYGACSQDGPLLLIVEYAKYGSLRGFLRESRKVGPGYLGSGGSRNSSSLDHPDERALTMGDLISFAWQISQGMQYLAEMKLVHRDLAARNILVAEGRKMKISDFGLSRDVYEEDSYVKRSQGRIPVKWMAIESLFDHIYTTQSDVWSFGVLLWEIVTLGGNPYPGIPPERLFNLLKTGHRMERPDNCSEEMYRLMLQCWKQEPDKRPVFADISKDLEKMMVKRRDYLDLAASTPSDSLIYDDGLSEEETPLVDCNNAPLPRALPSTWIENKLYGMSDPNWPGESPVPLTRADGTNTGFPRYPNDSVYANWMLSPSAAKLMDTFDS

`NC/C(=C\F)COc1cccc(Cn2c(=S)[nH]c(=O)c3[nH]cnc32)c1` has a remaining activity of 91% (Myeloperoxidase (MPO, Homo sapiens, UniProt P05164); LDL lipid peroxidation, inhibitor, cholesteryl ester hydroperoxide; 0.0021 µM).
With `c1cnc2ccc(Nc3nc(NC4CC4)c4nc[nH]c4n3)cc2c1` the remaining activity was 102% (PIM1; kinase activity, inhibitor, SelectScreen kinase profiling; 1 µM; baseline: control).
`O.[Fe+2].c1ccc(CN(CCN(Cc2ccccn2)Cc2ccccn2)Cc2ccccn2)cc1` has a remaining activity of roughly 10% (Proteasome Macropain subunit MB1 (PSMB5, Homo sapiens, UniProt P28074); 20S proteasome activity, inhibitor; 10 µM, 165 min, room temperature, aerobic without DTT).
`CC(C)C[C@H](NC(=O)[C@H](Cc1ccccc1)NC(=O)c1cnccn1)B(O)O` has a remaining activity of 1 ± 1% (Proteasome component C5/PSMB5 (Homo sapiens, UniProt P20618+P28074); enzyme activity, inhibitor; 1 µM, PA28αβ-activated, Tris buffer, with: Ac-WLA-AMC substrate).
`COc1cc(-c2cncc3c2CN(C)Cc2cc(N4CCNCC4)ccc2-3)cc(OC)c1OC` gave a remaining activity of 108% (Phosphatidylinositol 4-phosphate 3-kinase C2 domain-containing subunit alpha (PIK3C2A, Homo sapiens, UniProt O00443); kinase activity; 1 µM, human enzyme, with: ATP 10 µM; baseline: DMSO control).
With `COc1cc(F)ccc1-c1ncnc(Nc2cccc(C[S@](C)(=N)=O)c2)n1` the remaining activity was 89% (PAS domain-containing serine/threonine-protein kinase (PASK, Homo sapiens, UniProt Q96RG2); kinase activity; 10 µM, with: 10 µM ATP).
`COc1cc(N2CCN(C)CC2)ccc1Nc1nc(N)n(C(=S)NCc2c(Cl)cccc2Cl)n1` gave a remaining activity of 2.2% (HIPK1; enzyme activity; 10 µM; baseline: control).
The remaining activity of `O=C1NC(=O)/C(=C/c2ccc(-c3ccc(F)cc3O)o2)S1` is reported as 7% (PIM1; enzyme activity; 10 µM).
`OC[C@H]1OC(O)[C@H](O)[C@@H](O)[C@@H]1O` (some centres unmarked) has a remaining activity of 95 ± 0.6% (Alpha-L-fucosidase AlfA (Lacticaseibacillus rhamnosus, UniProt A0A809N3R1); inhibitor; 1000 µM, 5 min; baseline: untreated).
The remaining activity of `COc1cc(Nc2ncc3c(n2)-c2ccc(Cl)cc2C(c2c(F)cccc2OC)=NC3)ccc1C(=O)O` is reported as 65% (ABL1 T315I; kinase activity; 1 µM).
The remaining activity of `Cc1cc(NC(=O)c2cccc(NC(=O)/C=C/CN(C)C)c2)ccc1Nc1nccc(-c2cccnc2)n1` is reported as 0.055 (Mitogen-activated protein kinase 8, phosphorylated (MAPK8, Homo sapiens, UniProt P45983); enzyme activity after dialysis, inhibitor; 10 µM, 3 days, unit not given; baseline: no inhibitor).
`COc1ccc(F)cc1C(=O)NCc1ccc(-c2nn([C@@H](C)C(F)(F)F)c(N)c2C(N)=O)cc1` has a remaining activity of 42 ± 0.7% (PTK6; kinase activity, inhibitor, HotSpot radiometric; 100 nM, with: ATP 10 µM).
With `COc1cc(Nc2cnc(C#N)c(O[C@H](C)CN(C)C)n2)ncc1-c1cnn(C)c1` the remaining activity was 46% (human phosphorylase kinase; radiometric; 10 µM).
The remaining activity of `C=CC(=O)N1CCC([C@@H]2CCNc3c(C(N)=O)c(-c4ccc(Oc5ccccc5)cc4)nn32)CC1` is reported as 0.4 ± 0.1% (Tyrosine-protein kinase TXK (TXK, Homo sapiens, UniProt P42681); kinase activity, inhibitor, HotSpot radiometric; 100 nM, with: ATP 10 µM).
`CNc1ncc2c(/C=C/C(=O)N3CCC(OC)CC3)nn(Cc3cccc(C(F)(F)F)c3)c2n1` has a remaining activity of 94% (Cyclin-dependent kinase 20, with cyclin H (CDK20, Homo sapiens, UniProt Q8IZL9); kinase activity, inhibitor; 1 µM; baseline: untreated control).
For `CC#CC(=O)N1CCC[C@H]1c1nc(-c2ccc(C(=O)Nc3ccccn3)cc2)c2c(N)nccn12`, the remaining activity was 93.6 ± 1% (Proto-oncogene tyrosine-protein kinase receptor Ret (RET, Homo sapiens, UniProt P07949); kinase activity, inhibitor, HotSpot radiometric; 100 nM, with: ATP 10 µM).
`O=C(O)c1ccc(Nc2ncc3c(n2)-c2ccc(Cl)cc2C(c2c(F)cccc2F)=NC3)cc1` gave a remaining activity of 100% (human JAK3(h); kinase activity; 1 µM).
`O=C(NC1CCC1)c1ccc2nc(-c3cccc(NS(=O)(=O)NCCN4CCCCC4)c3)cn2c1` has a remaining activity of 100% (PIM1; enzyme activity; 10 µM).
With `CC(C)C(=O)Nc1n[nH]c2cc(-c3cccc(NS(=O)(=O)C4CC4)c3)ccc12` the remaining activity was 82.7% (Phosphatidylinositol 4-phosphate 5-kinase type-1 gamma (PIP5K1C, Homo sapiens, UniProt O60331); ADP-Glo; 1.11 µM; baseline: DMSO).
The remaining activity of `C=CC[C@@H]1c2ccc(OC)c(OC)c2CN2CCc3cc4c(cc3[C@H]12)OCO4` is reported as 92.5% (P2X purinoceptor 7 (P2rx7, Rattus norvegicus, UniProt Q64663); ATP-evoked current, inhibitor, whole-cell patch clamp; HEK293 transfected; 30 µM).
With `C=CC(=O)N1CCC[C@@H](n2nc(-c3ccc(Oc4ccccc4)cc3)c3c(N)ncnc32)C1` the remaining activity was 143% (Mitogen-activated protein kinase kinase kinase kinase 3 (MAP4K3, Homo sapiens, UniProt Q8IVH8); 0.1 µM).
With `COc1cc(N2CCN(C)CC2)ccc1Nc1nc(N)n(C(=O)NCc2ccccc2S(=O)(=O)C(C)C)n1` the remaining activity was 31% (Mitogen-activated protein kinase kinase kinase 1 (MAP3K1, Homo sapiens, UniProt Q13233); enzyme activity; 10 µM; baseline: control).
For `C[C@@H](Oc1ccc(S(C)(=O)=O)cc1C(=O)N1C[C@@H]2C[C@]2(c2cc(C(F)(F)F)on2)C1)C(F)(F)F`, the remaining activity was 88.8% (Sodium- and chloride-dependent glycine transporter 1 (SLC6A9, Homo sapiens, UniProt P48067, G373S); glycine uptake, inhibitor, [3H]glycine uptake; 0.004 µM, G319S mutant, log concentration 4, with: [3H]glycine; baseline: no inhibitor).
For `Cc1cc(Nc2cc(N3CCN(C)CC3)nc(Sc3ccc(NC(=O)C4CC4)cc3)n2)[nH]n1`, the remaining activity was 76% (Tyrosine-protein kinase receptor UFO (AXL, Homo sapiens, UniProt P30530); kinase activity, KinaseProfiler; 0.03 µM, species human; baseline: control).
`C=CC(=O)N1CCC[C@@H](n2nc(-c3ccc(Oc4ccccc4)cc3)c3c(N)ncnc32)C1` has a remaining activity of 3.1 ± 0.8% (PTK6; kinase activity, inhibitor, HotSpot radiometric; 100 nM, with: ATP 10 µM).
`CN(C)CC#Cc1ccc2[nH]c3c(c2c1)-c1nc(N)ncc1CCC3` has a remaining activity of 88% (HIPK1; kinase activity, inhibitor, radiometric; 1 µM, with: ATP at Km).

Repeated from above:
With `COc1cc(N2CCN(C)CC2)ccc1Nc1nc(N)n(C(=O)NCc2ccccc2S(=O)(=O)C(C)C)n1` the remaining activity was 31% (Mitogen-activated protein kinase kinase kinase 1 (MAP3K1, Homo sapiens, UniProt Q13233); enzyme activity; 10 µM; baseline: control).
For `Cc1cc(Nc2cc(N3CCN(C)CC3)nc(Sc3ccc(NC(=O)C4CC4)cc3)n2)[nH]n1`, the remaining activity was 76% (Tyrosine-protein kinase receptor UFO (AXL, Homo sapiens, UniProt P30530); kinase activity, KinaseProfiler; 0.03 µM, species human; baseline: control).
With `COc1cc(Nc2cnc(C#N)c(O[C@H](C)CN(C)C)n2)ncc1-c1cnn(C)c1` the remaining activity was 46% (human phosphorylase kinase; radiometric; 10 µM).
